Results from different studies.
Compare with care: the assays were run in different laboratories. ± gives the spread as reported.
HDAC2: Histone deacetylase 2 (HDAC2, Homo sapiens, UniProt Q92769)
Chain of UniProt Q92769 (whole entry, looked up): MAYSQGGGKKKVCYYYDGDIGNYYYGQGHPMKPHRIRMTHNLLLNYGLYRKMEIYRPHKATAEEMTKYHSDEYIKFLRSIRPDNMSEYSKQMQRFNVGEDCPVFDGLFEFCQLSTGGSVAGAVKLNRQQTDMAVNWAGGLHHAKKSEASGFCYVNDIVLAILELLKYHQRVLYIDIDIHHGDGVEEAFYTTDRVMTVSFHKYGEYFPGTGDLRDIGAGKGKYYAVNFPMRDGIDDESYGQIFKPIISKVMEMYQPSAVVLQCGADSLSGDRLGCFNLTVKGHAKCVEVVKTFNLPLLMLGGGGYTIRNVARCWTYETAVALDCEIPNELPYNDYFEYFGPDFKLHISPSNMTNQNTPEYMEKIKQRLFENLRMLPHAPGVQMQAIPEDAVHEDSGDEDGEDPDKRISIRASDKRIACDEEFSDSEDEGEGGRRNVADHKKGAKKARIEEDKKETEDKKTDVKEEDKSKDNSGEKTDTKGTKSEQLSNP
Tubulin alpha-1B chain/TUBB2B: Tubulin alpha-1B chain/TUBB2B (Bos taurus, UniProt P81947+Q6B856)
Chain of UniProt P81947 (whole entry, looked up): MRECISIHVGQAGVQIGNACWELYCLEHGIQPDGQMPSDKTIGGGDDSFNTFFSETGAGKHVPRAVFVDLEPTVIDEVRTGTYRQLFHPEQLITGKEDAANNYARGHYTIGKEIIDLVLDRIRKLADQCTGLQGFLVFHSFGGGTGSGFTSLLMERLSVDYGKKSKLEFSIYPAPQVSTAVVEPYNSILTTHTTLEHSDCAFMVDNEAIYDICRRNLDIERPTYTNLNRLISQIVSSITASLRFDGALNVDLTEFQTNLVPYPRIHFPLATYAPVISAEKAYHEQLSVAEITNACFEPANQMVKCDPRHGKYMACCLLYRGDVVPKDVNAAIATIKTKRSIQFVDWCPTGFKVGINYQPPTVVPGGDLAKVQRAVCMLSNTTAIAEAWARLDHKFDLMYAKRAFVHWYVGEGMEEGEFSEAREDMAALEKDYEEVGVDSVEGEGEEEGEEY
Chain of UniProt Q6B856 (whole entry, looked up): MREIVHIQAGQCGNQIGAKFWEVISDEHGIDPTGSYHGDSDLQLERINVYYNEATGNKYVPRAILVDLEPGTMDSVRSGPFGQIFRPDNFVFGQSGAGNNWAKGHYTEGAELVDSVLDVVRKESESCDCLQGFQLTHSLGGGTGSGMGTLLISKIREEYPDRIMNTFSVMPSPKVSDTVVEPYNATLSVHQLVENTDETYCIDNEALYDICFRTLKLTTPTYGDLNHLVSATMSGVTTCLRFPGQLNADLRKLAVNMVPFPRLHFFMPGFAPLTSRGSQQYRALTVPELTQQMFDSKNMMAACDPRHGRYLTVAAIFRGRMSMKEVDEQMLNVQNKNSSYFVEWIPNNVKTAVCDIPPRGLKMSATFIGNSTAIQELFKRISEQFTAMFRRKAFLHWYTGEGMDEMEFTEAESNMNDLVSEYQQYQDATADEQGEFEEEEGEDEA
APP: Amyloid-beta precursor protein (APP, Homo sapiens, UniProt P05067)
Chain of UniProt P05067 (whole entry, looked up): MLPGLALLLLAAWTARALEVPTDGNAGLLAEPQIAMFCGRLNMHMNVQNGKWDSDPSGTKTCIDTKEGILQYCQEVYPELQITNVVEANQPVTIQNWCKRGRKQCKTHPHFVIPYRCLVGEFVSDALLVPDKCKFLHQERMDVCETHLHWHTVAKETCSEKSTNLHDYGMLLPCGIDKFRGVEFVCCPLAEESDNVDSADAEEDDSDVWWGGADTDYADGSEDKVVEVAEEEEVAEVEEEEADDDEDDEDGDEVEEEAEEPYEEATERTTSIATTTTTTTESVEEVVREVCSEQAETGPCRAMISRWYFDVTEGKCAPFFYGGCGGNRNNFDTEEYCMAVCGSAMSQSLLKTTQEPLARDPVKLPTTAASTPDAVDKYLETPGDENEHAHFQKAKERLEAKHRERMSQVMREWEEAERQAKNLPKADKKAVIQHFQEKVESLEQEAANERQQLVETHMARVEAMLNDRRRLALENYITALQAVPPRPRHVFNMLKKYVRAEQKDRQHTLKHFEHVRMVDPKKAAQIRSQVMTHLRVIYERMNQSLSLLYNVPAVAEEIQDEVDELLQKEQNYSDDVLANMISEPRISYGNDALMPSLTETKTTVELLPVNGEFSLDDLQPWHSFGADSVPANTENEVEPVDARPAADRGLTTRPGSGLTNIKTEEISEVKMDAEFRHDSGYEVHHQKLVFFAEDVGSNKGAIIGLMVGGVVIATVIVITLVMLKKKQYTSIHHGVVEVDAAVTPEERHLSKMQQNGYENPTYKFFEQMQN
ADRA2A: Alpha-2A adrenergic receptor (ADRA2A, Homo sapiens, UniProt P08913)
Chain of UniProt P08913 (whole entry, looked up): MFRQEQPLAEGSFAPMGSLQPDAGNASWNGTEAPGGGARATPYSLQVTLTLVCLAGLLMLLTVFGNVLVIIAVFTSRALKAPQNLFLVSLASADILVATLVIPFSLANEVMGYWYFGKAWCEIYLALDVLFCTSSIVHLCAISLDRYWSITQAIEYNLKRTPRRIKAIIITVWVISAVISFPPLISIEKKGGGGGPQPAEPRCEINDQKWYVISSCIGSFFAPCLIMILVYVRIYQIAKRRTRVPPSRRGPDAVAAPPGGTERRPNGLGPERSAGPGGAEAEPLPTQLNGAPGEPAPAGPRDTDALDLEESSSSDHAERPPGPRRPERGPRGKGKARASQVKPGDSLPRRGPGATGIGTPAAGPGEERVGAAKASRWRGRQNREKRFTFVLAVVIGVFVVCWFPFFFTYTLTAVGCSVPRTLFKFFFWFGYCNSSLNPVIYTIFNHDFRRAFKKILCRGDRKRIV
DIO2: Type II iodothyronine deiodinase (DIO2, Homo sapiens, UniProt Q92813)
Chain of UniProt Q92813 (whole entry, looked up): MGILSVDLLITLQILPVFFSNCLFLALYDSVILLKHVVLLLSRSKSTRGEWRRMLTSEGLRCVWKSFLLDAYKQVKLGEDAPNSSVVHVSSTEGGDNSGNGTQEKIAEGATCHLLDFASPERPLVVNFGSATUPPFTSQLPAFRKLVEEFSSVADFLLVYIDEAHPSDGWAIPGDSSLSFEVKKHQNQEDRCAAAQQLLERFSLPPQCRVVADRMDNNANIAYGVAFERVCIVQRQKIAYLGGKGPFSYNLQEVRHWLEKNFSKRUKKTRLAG
Chain of UniProt P45568 (whole entry, looked up): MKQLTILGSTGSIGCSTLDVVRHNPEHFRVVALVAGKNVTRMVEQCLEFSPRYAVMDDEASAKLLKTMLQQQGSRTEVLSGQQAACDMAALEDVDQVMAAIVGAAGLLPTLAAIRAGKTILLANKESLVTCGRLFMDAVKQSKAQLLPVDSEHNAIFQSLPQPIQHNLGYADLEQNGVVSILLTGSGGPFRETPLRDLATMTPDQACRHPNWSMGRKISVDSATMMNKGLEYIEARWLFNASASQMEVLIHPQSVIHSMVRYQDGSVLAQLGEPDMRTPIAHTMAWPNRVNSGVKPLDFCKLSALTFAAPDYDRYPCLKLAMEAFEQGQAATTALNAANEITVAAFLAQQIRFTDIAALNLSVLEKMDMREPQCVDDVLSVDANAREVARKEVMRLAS

CC12CC3CC1(C)C1(C)CC3(CN)CC21C.Cl  inhibition (Glutamate NMDA receptor; Grin1/Grin2a (Grin1/Grin2a, Rattus norvegicus, UniProt P35439+Q00959); NMDA-evoked current, channel blocker, whole-cell patch clamp; tsA201 cells; 10 µM, holding potential -60 mV, together with: 100 µM NMDA plus 10 µM glycine): 88.3 ± 3.7%
O=C(NCCCCN1C(=O)c2ccccc2C1=O)c1coc(-c2ccccc2O)n1  inhibition (HDAC2; enzyme activity, inhibitor; 20 µM): 25%
C=C1C[C@@H]2CC[C@@]34C[C@H]5O[C@H]6[C@@H](O3)[C@H]3O[C@H](CC[C@@H]3O[C@H]6[C@H]5O4)CC(=O)O[C@@H]3[C@@H](C)[C@@H]4O[C@@H]5C[C@]6(C[C@@H]7O[C@]8(C[C@H](C)[C@@H]9O[C@H]([C@@H](O)C[C@@H](O)CO)C[C@@H]9O8)C[C@H](C)[C@@H]7O6)O[C@@H]5C[C@@H]4O[C@H]3C[C@H]3O[C@@H](CC[C@@H]1O2)C[C@@H](C)C3=C  inhibition (Tubulin alpha-1B chain/TUBB2B; [3H]DZA binding; 30 µM, 1.5 h preincubation, pH 6.9, together with: [3H]DZA 4.0 µM): 23 ± 6%
O=C(O)C(=O)CBr  inhibition (Sodium-coupled monocarboxylate transporter 1 (Rattus norvegicus, UniProt D3Z9E5); nicotinate uptake; HRPE expressing Sodium-coupled monocarboxylate transporter 1; 1 mM, 15 min, rat, together with: [14C]nicotinate 15 µM): 97%
COc1cccc2c1C(=O)c1c(O)c3c(c(O)c1C2=O)C[C@@](O)(C(C)=O)C[C@@H]3O[C@H]1C[C@H](N)[C@H](O)[C@H](C)O1  inhibition (SLC22A5 (Homo sapiens, UniProt O76082); transporter uptake, inhibitor; 200 µM): 31.2%
O=C(O)c1ccc(CNC(=O)c2coc(-c3ccccc3O)n2)cc1  inhibition (HDAC2; enzyme activity, inhibitor; 20 µM): ≥ 50%
CS(=O)(=O)c1ccc2nc(NC(=O)CCN3CCN(c4ccccc4)CC3)sc2c1  inhibition (APP; amyloid aggregation, inhibitor, fluorescence; 50 µM): 54.3%
anabaenopeptin 908  inhibition (Carboxypeptidase A1 (CPA1, Bos taurus, UniProt P00730); enzyme activity, inhibitor; up to 20 µg/mL, pH 7.5, together with: hippuryl-L-phenylalanine 1 mM): inactive
CS(=O)(=O)c1ccc2nc(NC(=O)CCN3CCN(c4ccccn4)CC3)sc2c1  inhibition (APP; self-induced aggregation, thioflavin-T fluorescence; 50 µM, 48 h, together with: APP 50 µM): 53.3 ± 0.541%
COC(=O)c1ccc(Nc2ccc3c(c2)C(c2ccccc2F)=NC(C)C(=O)N3)cc1 (centres unmarked)  inhibition (ADRA2A; ligand displacement, radioligand; 10 µM): 77%
Cc1nc2sccn2c(=O)c1CCN1CCC(=C(c2ccccc2)c2ccc(F)cc2)CC1  inhibition (HTR2B (Homo sapiens, UniProt P41595); agonist response, antagonist; 10 µM, together with: reference agonist at EC90): 100%
Cc1ccc(N2CCN(CCC(=O)Nc3nc4ccc(S(C)(=O)=O)cc4s3)CC2)cc1  inhibition (APP; amyloid aggregation, inhibitor, fluorescence; 50 µM): 54.4%
CC1N=C(c2ccccc2F)c2cc(NCc3ccccc3)ccc2NC1=O (centres unmarked)  inhibition (ADRA2A; ligand displacement, radioligand; 10 µM): 15%
Brc1ccc(Oc2cc(Br)c(Br)cc2Br)c(Br)c1  inhibition (DIO2; H4 glioma; 500 nM, 6 h; relative to: untreated): 78.6 ± 3.9%
CC[C@H](C)[C@@H]([C@@H](CC(=O)N1CCC[C@H]1[C@H](OC)[C@@H](C)C(=O)N[C@@H](Cc1ccccc1)c1nccs1)OC)N(C)C(=O)[C@@H](NC(=O)[C@H](C(C)C)N(C)C)C(C)C  inhibition (Tubulin alpha-1B chain/TUBB2B; [3H]DZA binding, inhibitor; bovine; 30 µM, 1.5 h preincubation, pH 6.9, together with: [3H]DZA 4.0 µM): 55 ± 5%
Oc1cc(Oc2cc(Br)c(Br)cc2Br)c(Br)cc1Br  inhibition (DIO2; H4 glioma; 500 nM, 6 h, together with: 10 µM MG132 + 100 µM cycloheximide; relative to: MG132 + cycloheximide): 15 ± 5.3%
O=C(O)[C@H]1/C(=C/CO)O[C@@H]2CC(=O)N21  inhibition (VIM-2 (Escherichia coli, UniProt Q5U7L7); enzyme activity, inhibitor; 50 µM): ≤ 25%
O=C(N[C@@H](Cn1ccnc1)c1ccc(-c2ccc(F)cc2)cc1Cl)c1ccc(-c2nnc(-c3ccccc3)o2)cc1  inhibition (Putative lanosterol 14-alpha-demethylase (Leishmania infantum, UniProt A2TEF2); enzyme activity, inhibitor; equimolar to enzyme, 1 h, Leishmania infantum CYP51, together with: obtusifoliol 50 µM): inhibited
CS(=O)(=O)c1ccc2nc(NC(=O)CCN3CCN(Cc4ccc5c(c4)OCO5)CC3)sc2c1  inhibition (APP; amyloid aggregation, inhibitor, fluorescence; 50 µM): 45.3%
CNCC(O)c1ccc(O)cc1 (racemic)  inhibition (SCN10A (Homo sapiens, UniProt Q9Y5Y9); sodium influx, inhibitor, FLIPR; HEK293; 10 µM, together with: deltamethrin 10 µM): 79.6%
CC1N=C(c2ccccc2F)c2cc(Nc3ccc(C#N)cc3)ccc2NC1=O (centres unmarked)  inhibition (ADRA2A; ligand displacement, radioligand; 10 µM): 49%
COc1cc([C@@H]2c3cc4c(cc3[C@H](O)[C@H]3COC(=O)[C@H]23)OCO4)cc(OC)c1OC  inhibition (Tubulin alpha-1B chain/TUBB2B; [3H]DZA binding; 30 µM, 1.5 h preincubation, pH 6.9, together with: [3H]DZA 4.0 µM): 20 ± 2%
CN(C)C/C=C/C(=O)Nc1cccc(C(=O)Nc2ccc(Nc3nccc(-c4cccnc4)n3)cc2)c1  inhibition (MAPK14 (Homo sapiens, UniProt Q16539); target engagement in cells, inhibitor, chemoproteomics; A-375; 1 µM): 14.7%
COc1ccc(N2CCN(CCC(=O)Nc3nc4ccc(S(C)(=O)=O)cc4s3)CC2)cc1  inhibition (APP; amyloid aggregation, inhibitor, fluorescence; 50 µM): 52.3%
CCCNC(=O)[C@H]1O[C@@H]1C(=O)N[C@H](C(=O)N1CCC[C@H]1C(=O)OC)[C@@H](C)CC  inhibition (Cathepsin B (CTSB, Homo sapiens, UniProt P07858); enzyme activity, inhibitor; neuroblastoma cells; 50 µM, 6 h, 37 °C, together with: Z-Arg-Arg-AMC): inhibited
CS(=O)(=O)c1ccc2nc(NC(=O)CCN3CCN(c4ccc(Cl)cc4)CC3)sc2c1  inhibition (APP; amyloid aggregation, inhibitor, fluorescence; 50 µM): 51.7%
O=C(O)P(=O)(O)O  inhibition (Gag-Pol polyprotein, reverse transcriptase RNase H (gag-pol, Human immunodeficiency virus 1, UniProt P03366); RNase H activity; 200 µM, single turnover, heparin trap, together with: β-thujaplicinol 50 µM): no inhibition
CS(=O)(=O)c1ccc2nc(NC(=O)CCN3CCN(c4ccc([N+](=O)[O-])cc4)CC3)sc2c1  inhibition (APP; amyloid aggregation, inhibitor, fluorescence; 50 µM): 54.3%
CC1N=C(c2ccccc2F)c2cc(N3CCCCC3)ccc2NC1=O (centres unmarked)  inhibition (ADRA2A; ligand displacement, radioligand; 10 µM): 9%
COc1cc(/C=C/C(=O)CC(=O)/C=C/c2ccc(O)c(OC)c2)ccc1O  inhibition (APP; amyloid aggregation, inhibitor, fluorescence; 50 µM): 50.2%
CC1N=C(c2ccccc2F)c2cc(Nc3ccc(C(F)(F)F)cc3)ccc2NC1=O (centres unmarked)  inhibition (ADRA2A; ligand displacement, radioligand; 10 µM): 60%
O=Cc1cc(O)c(O)cc1O  inhibition (dxs (Escherichia coli, UniProt P77488); inhibitor; inactive up to value): > 75 µM
COc1ccccc1Nc1ccc2c(c1)C(c1ccccc1F)=NC(C)C(=O)N2 (centres unmarked)  inhibition (ADRA2A; ligand displacement, radioligand; 10 µM): 74%
O=C(NC(c1ccccc1)c1ccccc1)c1coc(-c2ccccc2O)n1  inhibition (HDAC2; enzyme activity, inhibitor; 20 µM): ≥ 50%
COc1ccc(Nc2ccc3c(c2)C(c2ccccc2F)=NC(C)C(=O)N3)cc1 (centres unmarked)  inhibition (ADRA2A; ligand displacement, radioligand; 10 µM): 70%
COc1ccc(-c2sc(N)nc2-c2cc(OC)c(OC)c(OC)c2)cc1  inhibition (Tubulin alpha-1B chain/TUBB2B, colchicine site (Bos taurus, UniProt P81947+Q6B856); [3H]colchicine binding; 1 5 5 µM): 79 ± 0.21%
CC1N=C(c2ccccc2F)c2cc(N(C)c3ccccc3)ccc2NC1=O (centres unmarked)  inhibition (ADRA2A; ligand displacement, radioligand; 10 µM): 48%
O=CN(O)CCCc1ccc(Cl)c(Cl)c1  inhibition (1-deoxy-D-xylulose 5-phosphate reductoisomerase (Escherichia coli K-12, UniProt P45568); enzyme activity; 100 µM): inactive

Repeated from above:
CC1N=C(c2ccccc2F)c2cc(Nc3ccc(C(F)(F)F)cc3)ccc2NC1=O (centres unmarked)  inhibition (ADRA2A; ligand displacement, radioligand; 10 µM): 60%
O=Cc1cc(O)c(O)cc1O  inhibition (dxs (Escherichia coli, UniProt P77488); inhibitor; inactive up to value): > 75 µM
COc1ccccc1Nc1ccc2c(c1)C(c1ccccc1F)=NC(C)C(=O)N2 (centres unmarked)  inhibition (ADRA2A; ligand displacement, radioligand; 10 µM): 74%
O=C(NC(c1ccccc1)c1ccccc1)c1coc(-c2ccccc2O)n1  inhibition (HDAC2; enzyme activity, inhibitor; 20 µM): ≥ 50%
